{"data": "Measured values pooled from the literature", "TDP1": "Tyrosyl-DNA phosphodiesterase 1 (TDP1, Homo sapiens, UniProt Q9NUW8)", "note": "Protocols differ between the studies behind these lines. ± gives the spread as reported.", "UniProt Q9NUW8, sequence (whole entry, looked up)": "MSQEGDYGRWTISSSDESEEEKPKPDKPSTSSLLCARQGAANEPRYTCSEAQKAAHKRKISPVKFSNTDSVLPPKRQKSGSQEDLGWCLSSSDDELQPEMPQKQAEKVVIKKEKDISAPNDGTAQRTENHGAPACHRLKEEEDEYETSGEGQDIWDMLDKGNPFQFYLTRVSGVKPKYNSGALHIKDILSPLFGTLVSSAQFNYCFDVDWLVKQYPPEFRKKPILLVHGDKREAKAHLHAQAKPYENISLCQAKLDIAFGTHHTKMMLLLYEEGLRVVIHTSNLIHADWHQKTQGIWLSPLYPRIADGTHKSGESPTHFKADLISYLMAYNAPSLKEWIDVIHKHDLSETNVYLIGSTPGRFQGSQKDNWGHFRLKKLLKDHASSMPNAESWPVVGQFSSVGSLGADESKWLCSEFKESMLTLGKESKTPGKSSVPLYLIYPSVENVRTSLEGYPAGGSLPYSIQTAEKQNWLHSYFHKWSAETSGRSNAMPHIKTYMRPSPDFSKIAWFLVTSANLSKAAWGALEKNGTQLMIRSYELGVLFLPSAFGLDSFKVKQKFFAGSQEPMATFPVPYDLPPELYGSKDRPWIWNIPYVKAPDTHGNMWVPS"}
{"Compound": "COc1cccc(OC)c1-c1cc(C(=O)NC2(C(=O)O)C3CC4CC(C3)CC2C4)nn1-c1ccc(C(=O)N(C)CCOCCOCCN(C)C(=O)[C@H](CCCCNC(=O)[C@H](CC(C)C)NC(=O)C2OC2C(=O)O)NC(=O)CN2CCN(CC(=O)[O-])CCN(CC(=O)[O-])CCN(CC(=O)[O-])CC2)cc1C(C)C.[177Lu+3] (mixture of isomers)", "system": "mouse, HT-29 xenograft, kidney", "setting": "72 h post injection", "endpoint": "tissue uptake", "value": "4.2 %ID/g"}
{"Compound": "COc1ccc(Nc2nc(Nc3ccc(OCCOCCOCC[18F])cc3)ncc2Br)cc1", "system": "ICR mice, S180 tumour-bearing, liver", "setting": "intravenous, 370 kBq, 60 min", "endpoint": "tissue uptake", "value": "2.24 ± 0.16 %ID/g"}
{"Compound": "O=C(O)CCCOc1ccc([18F])cc1-c1cc(-c2ccccc2C(F)(F)F)n(-c2ccccc2)n1", "system": "mouse, urine", "setting": "intravenous, dose not given, 30 min", "endpoint": "tissue uptake", "value": "0.06 ± 0.03 %ID/g"}
{"Compound": "CCOC(=O)N1CCN(c2ccccc2C=NOCc2ccc3nc(-c4ccccc4)c(Nc4ccc(C(=O)O)cc4)n3c2)CC1", "target or system": "TDP1", "assay": "enzyme activity, inhibitor", "setting": "100 µM, unpurified compound", "endpoint": "inhibition", "value": "49%"}
{"Compound": "O=C(NCC1OC2CCC=CCCC2O1)c1ccc([18F])nc1 (stereo not shown)", "system": "healthy female BALB/c nude mice, muscle", "setting": "intravenous, 7.4 MBq per mouse, 10 min", "endpoint": "tissue uptake", "value": "1.7 ± 0.5 %ID/g"}
{"Compound": "[123I]c1ccc2nc(-c3ccc(-n4ccnn4)nc3)cn2c1", "system": "male Wistar rat, small intestine", "setting": "intravenous, 4 MBq, 24 h", "endpoint": "tissue uptake", "value": "0.022 ± 0.008 %ID/g"}
{"Compound": "COC(=O)c1ccc(C=NOCc2ccc3nc(-c4ccccc4)c(Nc4ccc(C(=O)O)cc4)n3c2)cc1 (mixture of isomers)", "target or system": "TDP1", "assay": "enzyme activity, inhibitor", "setting": "100 µM, unpurified compound", "endpoint": "inhibition", "value": "28.7%"}
{"Compound": "N#C[C@@H]1CC(F)(F)CN1C(=O)CNC(=O)c1ccnc2c(NC(=O)[C@@H](N)CCCCNC(=O)CCOCCOCCOCCOCCOCCOCCNC(=O)CN3CCN(CC(=O)[O-])CCN(CC(=O)[O-])CCN(CC(=O)[O-])CC3)cccc12.[177Lu+3]", "system": "mouse, U-87 MG tumour xenograft, kidneys", "setting": "48 h", "endpoint": "tissue uptake", "value": "1.48 ± 0.26 %ID/g"}
{"Compound": "COc1ccc(Nc2nc(Nc3ccc(OCCOCC[18F])cc3)ncc2Br)cc1", "system": "ICR mice, S180 tumour-bearing, tumor", "setting": "intravenous, 370 kBq, 60 min", "endpoint": "tissue uptake", "value": "4.07 ± 0.5 %ID/g"}
{"Compound": "COc1cccc(OC)c1-c1cc(C(=O)NC2(C(=O)O)C3CC4CC(C3)CC2C4)nn1-c1ccc(C(=O)NCCNC(=O)[C@H](CCCCNC(=O)[C@H](CC(C)C)NC(=O)C2OC2C(=O)O)NC(=O)CN2CCN(CC(=O)[O-])CCN(CC(=O)[O-])CCN(CC(=O)[O-])CC2)cc1C(C)C.[177Lu+3] (mixture of isomers)", "system": "mouse HT-29 xenograft, small intestine", "setting": "24 h post injection, biodistribution", "endpoint": "tissue uptake", "value": "0.42 %ID/g"}
{"note": "A few entries again:"}
{"Compound": "COc1ccc(Nc2nc(Nc3ccc(OCCOCCOCC[18F])cc3)ncc2Br)cc1", "system": "ICR mice, S180 tumour-bearing, liver", "setting": "intravenous, 370 kBq, 60 min", "endpoint": "tissue uptake", "value": "2.24 ± 0.16 %ID/g"}
